Measurements of several laboratories.
Every numbered part comes from another study and shows a few of its results, in no order.

Series 1
Target: Replicase polyprotein 1ab, main protease (rep, Severe acute respiratory syndrome coronavirus 2, UniProt P0DTD1)
Read-out: enzyme activity
Mode: inhibitor
Tested at: 20 µM
Setting: hit confirmation
The inhibition of CC/C=C\C/C=C\C/C=C/C/C=C\C/C=C\C/C=C\CCC(=O)OCC is reported as -3.2%.
With CCN1CCN(C(c2ccc(C(F)(F)F)cc2)c2ccc3cccnc3c2O)CC1 (centres unmarked) the inhibition was 110%.
CC[C@]1(O)C[C@H]2C[N@@](CCc3c([nH]c4ccccc34)[C@@](C(=O)OC)(c3cc4c(cc3OC)N(C=O)[C@H]3[C@@](O)(C(=O)OC)[C@H](OC(C)=O)[C@]5(CC)C=CCN6CC[C@]43[C@@H]65)C2)C1 gave an inhibition of 29.2%.

Series 2
Cell line: HEK-293T/ACE2
Tested at: concentration not given
Time: 16 (unit not given)
Baseline: vehicle
CCOc1ccccc1OCCN[C@H](C)Cc1ccc(OC)c(S(N)(=O)=O)c1 has a viability of 83.6%.
CN(C)[C@@H]1C(O)=C(C(N)=O)C(=O)[C@@]2(O)C(O)=C3C(=O)c4c(O)ccc(Cl)c4[C@@H](O)[C@H]3C[C@@H]12 gave a viability of 102%.
CNCC(O)c1ccc(OC(=O)C(C)(C)C)c(OC(=O)C(C)(C)C)c1 (centres unmarked) gave a viability of 102%.

Series 3
Target: Replicase polyprotein 1ab, polymerase (rep, Severe acute respiratory syndrome coronavirus 2, UniProt P0DTD1)
Read-out: enzyme activity
Mode: inhibitor
Tested at: 20 µM
For O=C(/C=C/c1ccc(O)c(O)c1)c1ccc(O)cc1O, the inhibition was 48.9%.
For CNC(=O)c1ccc(Nc2ncc(C(F)(F)F)c(NCc3nccnc3N(C)S(C)(=O)=O)n2)cc1, the inhibition was -1.75%.
COC(=O)c1c(C)[nH]c(C)c1C(=O)c1ccccc1Cc1ccccc1 has an inhibition of -4.66%.
With C=CCN1C[C@H](C(=O)N(CCCN(C)C)C(=O)NCC)C[C@@H]2c3cccc4[nH]cc(c34)C[C@H]21 the inhibition was 4.73%.
The inhibition of CN1CC[C@@H]2CN3CCc4cccc(c43)[C@@H]2C1 is reported as 1.8%.
CCN(CC)CCNC(=O)c1c(C)[nH]c(/C=C2\C(=O)Nc3ccc(F)cc32)c1C gave an inhibition of 6.23%.
O=C1C[C@@H](c2ccc(O)cc2)Oc2cc(O)cc(O)c21 has an inhibition of 1.66%.
CNC(=O)c1ccccc1Sc1ccc2c(/C=C/c3ccccn3)n[nH]c2c1 has an inhibition of 14.9%.
NC(=O)N/N=C/c1ccc([N+](=O)[O-])o1 has an inhibition of 21%.
OC(CN1CCN(c2cccc(Cl)c2)CC1)C(c1ccccc1)c1ccccc1 (centres unmarked) has an inhibition of -6.03%.
CC(CCc1ccccc1)NC(C)C(O)c1ccc(O)cc1 (centres unmarked) has an inhibition of 16.8%.
For CC(C)C[C@H](NC(=O)[C@H](Cc1ccccc1)NC(=O)c1cnccn1)B(O)O, the inhibition was -1.16%.
For COc1ccccc1OCCNCC(O)COc1cccc2[nH]c3ccccc3c12 (centres unmarked), the inhibition was -2.75%.
OCCCNc1ccccc1 gave an inhibition of 1.07%.
The inhibition of Cc1ccc(-c2nc3ccc(C)cn3c2CC(=O)N(C)C)cc1 is reported as -5.03%.
With Cc1cc(O)c2c(=O)c3c(O)cc(O)c4c5c(O)cc(O)c6c(=O)c7c(O)cc(C)c8c1c2c(c34)c(c78)c65 the inhibition was 99.5%.
With COc1ccc(C(=O)c2c(C)n(CCN3CCOCC3)c3ccccc23)cc1 the inhibition was 4.14%.
The inhibition of CN1CCN2c3ncccc3Cc3ccccc3C2C1 (centres unmarked) is reported as 0.39%.
For CN1CCCN=C1COC(=O)C(O)(c1ccccc1)C1CCCCC1 (centres unmarked), the inhibition was 8.91%.
CCO[C@@H](Cc1ccc(OCCc2ccc(OS(C)(=O)=O)cc2)cc1)C(=O)O gave an inhibition of 12.2%.
For CC(C)c1ccc(C(=O)c2cccs2)c(SCCCCCCCCN(C)C)n1, the inhibition was -2.74%.
For Cc1ccccc1OCC(O)CO (centres unmarked), the inhibition was 21.7%.
The inhibition of Nc1nc(N)nc(NC2CC2)n1 is reported as -5.94%.
For CCOC(=O)C1=CCCC[C@H]1S(=O)(=O)Nc1ccc(F)cc1Cl, the inhibition was -0.91%.
COC(=O)C(Cc1ccc(OCCn2c(=O)sc3cc(C(=O)c4ccccc4)ccc32)cc1)C(=O)OC has an inhibition of -1.95%.

Series 4
Target: RING finger protein unkempt homolog, zinc fingers 1-6, SBP tag (UNK, Homo sapiens, UniProt Q9C0B0, residues 30-357)
Chain of UniProt Q9C0B0 (30-357, looked up): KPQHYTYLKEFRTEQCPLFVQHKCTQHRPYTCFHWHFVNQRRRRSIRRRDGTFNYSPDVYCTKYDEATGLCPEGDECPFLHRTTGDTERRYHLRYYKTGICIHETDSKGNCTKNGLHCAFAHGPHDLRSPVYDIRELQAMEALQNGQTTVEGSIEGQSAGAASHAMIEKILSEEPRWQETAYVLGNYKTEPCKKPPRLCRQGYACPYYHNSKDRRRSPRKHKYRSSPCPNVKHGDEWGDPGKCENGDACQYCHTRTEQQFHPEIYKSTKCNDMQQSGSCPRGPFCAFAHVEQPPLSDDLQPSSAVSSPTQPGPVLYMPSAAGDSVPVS
Method: RNA Bind-n-Seq
Molecule type: RNA
Matrix: in vitro
Tested at: 100 nM
Setting: RNA with constant flanks, vertebrate orthologous sites, ends assumed
Baseline: input RNA pool
Reading: higher = stronger binding
The bound/input enrichment of `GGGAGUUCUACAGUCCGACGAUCUGGGUUACUCCUAUUAUUAUCAAGUAGCUGGAAUUGUGAAGGUCGGAGUAGUUAGAUCUUUAGCUUUUAUUCCUUAUUUUUUUGUAUUACUAUCCAUGUGUAUAAAUUAUUGAUCAUGUUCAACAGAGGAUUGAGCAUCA` is reported as 3.14 ratio.
`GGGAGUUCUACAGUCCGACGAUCCCCUGUGUUGGCCCUGGGGAGCUGCUGGGUGCUUAGCAUUUUUUGAUUUUGACAUUGACAUAAUAGAUAGGCUUGUGGGUUGUUUUGUUUUUGUUUUUUAAUUUAAAAAUAUUAAGACUUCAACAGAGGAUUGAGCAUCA` gave a bound/input enrichment of 1.07 ratio.
The bound/input enrichment of `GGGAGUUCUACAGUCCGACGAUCUUAAAGUCAUUUUUUUCACGUUUCCUGUAAAUAAUGGAUAAUCAUUUUUAUUUUAUUUUUAAGUGCUGUUUUAACAAUGUGGAUAGACCAUAAAUGUACUUGCUGAAUUCAUUCAUUUUUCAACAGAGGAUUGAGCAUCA` is reported as 0.237 ratio.
With `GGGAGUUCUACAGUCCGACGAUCCUGAAGCUUUGUGUUUGGCUGCACCUGCAUAAGCUGCUACAAAUAGAAUAAAGAAUUUCGUAGCCUGUAUCUAUCAUUUAGAUGCAUGGAAAAAAAUGGGCUUUGCACACAAUGGGUUUGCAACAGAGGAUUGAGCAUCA` the bound/input enrichment was 1.59 ratio.
`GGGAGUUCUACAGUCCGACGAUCUAUUCGUGUCAUACCAGCAUAUUAUCUUCUCGUCUGUGCACAGCUUCAAAUGUUACCGUCUAGUUAGAUUUUUAUUUAAAAUAUGAAAAACUGCUUUUCCCAAGACGUUUUUUAAAAACACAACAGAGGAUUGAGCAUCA` gave a bound/input enrichment of 1.12 ratio.
`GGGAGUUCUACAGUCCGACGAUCGUAUCUUGGUUUGGGUAAAGGGGAGGGAGGGGUAAGACGGUGUGGAAUCUCUAGAGUAUAAGGGGAGAUAGGGUGCAUAGUUAGUUCUAAAUGGGCCUUUAUGUUAAAAACCUCUGGGAGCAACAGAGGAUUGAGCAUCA` has a bound/input enrichment of 2.06 ratio.
`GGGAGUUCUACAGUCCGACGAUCUCUGGUGCCCCCCACUGUGAGAAAAUGGGGGAAGCUCAAUGACCCUCAGCUGUUCCAAUCUAGUAUUUUGUUUUCUUUUUUAAAAUUACUGUAUUUAUUAUGACGAUGGUGACUCCCCAGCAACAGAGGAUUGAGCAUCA` has a bound/input enrichment of 0.801 ratio.
The bound/input enrichment of `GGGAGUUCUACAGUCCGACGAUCAUGAUUUUUAAUCUCUUCUCCCCUAUCCUGGUUUUAAAAGUCUUUUUUUUUUUCUUUUAGGCACAUGUAGUAACAUUAGCAGAAAGAUUUAAUUUGGGCAACUUUGAUUCUUAAAAGAGUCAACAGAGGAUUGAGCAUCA` is reported as 0.352 ratio.

Series 5
Target: Sox, HMG box (Pigoraptor chileana)
Method: Spec-seq
Molecule type: double-stranded DNA, one strand shown
Matrix: in vitro
Tested at: not given
Setting: whole probe, mean of replicates
Baseline: not given
Reading: lower = stronger binding
Residues (chain): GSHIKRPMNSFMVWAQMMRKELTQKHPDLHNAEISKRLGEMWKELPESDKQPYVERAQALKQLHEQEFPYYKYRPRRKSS
`GAGTCGTCTCGTCAGCACCATTCAGCCGTAGAGCACTCAGGTC`: “relative binding energy” -0.124 ln ratio.
For `GAGTCGTCTCGTCAGCACCATTCCGCCGTAGAGCACTCAGGTC`, “relative binding energy” read 0.798 ln ratio.
`GAGTCGTCTCGTCAGCACCATCGGGCCGTAGAGCACTCAGGTC` — result for “relative binding energy”: 0.437 ln ratio.

Series 6
Target: Histone acetyltransferase KAT6A, winged helix 2, GST fusion (KAT6A, Homo sapiens, UniProt Q92794, residues 85-181)
Method: protein binding microarray
Molecule type: double-stranded DNA, one strand shown
Matrix: in vitro
Tested at: not given
Setting: 8-mer, flanks averaged, mean of 2 arrays, mostly near background
Baseline: not given
Reading: higher = stronger binding
Target sequence (chain): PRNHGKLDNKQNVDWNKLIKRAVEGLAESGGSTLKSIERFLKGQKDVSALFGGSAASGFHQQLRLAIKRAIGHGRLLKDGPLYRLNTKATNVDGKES
With `AACATCGC` the E-score was -0.0297.
The E-score of `CGTCATGA` is reported as -0.00154.
`AGTCATAC` gave an E-score of -0.169.
`AGCAAATA` has an E-score of 0.0712.
With `CATCACTA` the E-score was -0.14.
With `CTTCCCCC` the E-score was -0.154.
For `ATCTATGA`, the E-score was -0.0574.
`CTCGCCAC` gave an E-score of 0.1.

Repeated from above (series 6):
`AGCAAATA` has an E-score of 0.0712.
`CTCGCCAC` gave an E-score of 0.1.
The E-score of `CGTCATGA` is reported as -0.00154.
For `ATCTATGA`, the E-score was -0.0574.
`AGTCATAC` gave an E-score of -0.169.
With `CATCACTA` the E-score was -0.14.
With `AACATCGC` the E-score was -0.0297.
